Assay results collected from several papers.
Protocols differ between the studies behind these lines. pEC50, pIC50: −log10 of the molar value.
Target: histidine kinase ComD (Streptococcus pneumoniae serotype 4, UniProt A0A0H2US84)
Organism: Streptococcus pneumoniae
Sequence (A0A0H2US84 1-441, as in one of the studies): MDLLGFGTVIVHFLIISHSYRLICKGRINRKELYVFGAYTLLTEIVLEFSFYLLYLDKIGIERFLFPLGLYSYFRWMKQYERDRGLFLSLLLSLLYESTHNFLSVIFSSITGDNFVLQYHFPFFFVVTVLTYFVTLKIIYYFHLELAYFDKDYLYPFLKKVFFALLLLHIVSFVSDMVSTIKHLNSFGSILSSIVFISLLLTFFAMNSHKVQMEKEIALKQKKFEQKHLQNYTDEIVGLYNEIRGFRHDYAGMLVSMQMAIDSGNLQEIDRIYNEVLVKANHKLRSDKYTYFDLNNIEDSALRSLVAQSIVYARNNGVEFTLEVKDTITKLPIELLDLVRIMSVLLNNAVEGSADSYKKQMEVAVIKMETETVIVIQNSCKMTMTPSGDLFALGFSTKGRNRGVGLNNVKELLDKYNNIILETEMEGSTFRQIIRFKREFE

Structure (SMILES) = CC[C@H](C)[C@H](NC(=O)[C@H](CC(N)=O)NC(=O)[C@H](Cc1c[nH]cn1)NC(=O)[C@@H](NC(=O)[C@@H](NC(=O)[C@H](CCCNC(=N)N)NC(=O)[C@@H](NC(=O)[C@@H](N)CCC(=O)O)[C@@H](C)CC)[C@@H](C)CC)[C@@H](C)O)C(=O)N[C@@H](Cc1ccccc1)C(=O)N[C@@H](Cc1ccccc1)C(=O)N[C@@H](CC(N)=O)C(=O)N[C@@H](Cc1ccccc1)C(=O)N[C@@H](Cc1ccccc1)C(=O)N[C@@H](CCCCN)C(=O)N[C@@H](CCCNC(=N)N)C(=O)N[C@@H](CCCNC(=N)N)C(=O)O; assay = reporter gene, agonist; test system = TIGR4 comX::lacZ; conditions = 30 min, pH 7.3, 37 °C; endpoint = pEC50; result = < 5.00
Structure (SMILES) = CC[C@H](C)[C@H](NC(=O)[C@H](Cc1ccccc1)NC(=O)[C@H](CCCN)NC(=O)[C@H](CCCNC(=N)N)NC(=O)[C@H](Cc1ccccc1)NC(=O)[C@H](Cc1ccccc1)NC(=O)[C@H](CCN)NC(=O)[C@H](CO)NC(=O)[C@H](CC(C)C)NC(=O)[C@H](CCCNC(=N)N)NC(=O)[C@H](CCSC)NC(=O)[C@H](C)N)C(=O)N[C@@H](CC(C)C)C(=O)N[C@@H](CCC(N)=O)C(=O)N[C@@H](CCCNC(=N)N)C(=O)N[C@@H](CCCCN)C(=O)N[C@@H](CCCCN)C(=O)O; test system = Streptococcus pneumoniae cells; endpoint = pIC50; result = < 6.00
Structure (SMILES) = CC[C@H](C)[C@H](NC(=O)[C@H](CCCNC(=N)N)NC(=O)[C@H](CCSC)NC(=O)[C@H](C)N)C(=O)N[C@@H](CO)C(=O)N[C@@H](CCCNC(=N)N)C(=O)N[C@H](C(=O)N[C@H](C(=O)N[C@@H](CCCNC(=N)N)C(=O)N[C@H](CC(=O)O)C(=O)N[C@@H](Cc1ccccc1)C(=O)N[C@@H](CC(C)C)C(=O)N[C@@H](Cc1ccccc1)C(=O)N[C@@H](CCC(N)=O)C(=O)N[C@@H](CCCNC(=N)N)C(=O)N[C@@H](CCCCN)C(=O)N[C@@H](CCCCN)C(=O)O)[C@@H](C)CC)[C@@H](C)CC; endpoint = pIC50; result = < 6.00
Structure (SMILES) = CC[C@H](C)[C@H](NC(=O)[C@H](Cc1ccccc1)NC(=O)[C@@H]1CNC(=O)NC[C@H](NC(=O)[C@H](CO)NC(=O)[C@H](CC(C)C)NC(=O)[C@H](CCCNC(=N)N)NC(=O)[C@H](CCSC)NC(=O)[C@H](C)N)C(=O)N[C@@H](Cc2ccccc2)C(=O)N[C@@H](Cc2ccccc2)C(=O)N[C@@H](CCCNC(=N)N)C(=O)N1)C(=O)N[C@@H](CC(C)C)C(=O)N[C@@H](CCC(N)=O)C(=O)N[C@@H](CCCNC(=N)N)C(=O)N[C@@H](CCCCN)C(=O)N[C@@H](CCCCN)C(=O)O; endpoint = pEC50; result = < 6.00
Structure (SMILES) = CCC[C@H](NC(=O)[C@H](CCCNC(=N)N)NC(=O)[C@H](CCSC)NC(=O)[C@H](C)N)C(=O)N[C@@H](CO)C(=O)N[C@@H](CCCNC(=N)N)C(=O)N[C@H](C(=O)N[C@H](C(=O)N[C@@H](CCCNC(=N)N)C(=O)N[C@H](CC(=O)O)C(=O)N[C@@H](Cc1ccccc1)C(=O)N[C@@H](CC(C)C)C(=O)N[C@@H](Cc1ccccc1)C(=O)N[C@@H](CCC(N)=O)C(=O)N[C@@H](CCCNC(=N)N)C(=O)N[C@@H](CCCCN)C(=O)N[C@@H](CCCCN)C(=O)O)[C@@H](C)CC)[C@@H](C)CC; endpoint = pIC50; result = < 6.00
Structure (SMILES) = CC[C@H](C)[C@H](NC(=O)[C@H](Cc1ccccc1)NC(=O)[C@H](C)NC(=O)[C@H](C)NC(=O)[C@H](Cc1ccccc1)NC(=O)[C@H](Cc1ccccc1)NC(=O)[C@H](C)NC(=O)[C@H](C)NC(=O)[C@H](CC(C)C)NC(=O)[C@H](CCCNC(=N)N)NC(=O)[C@H](CCSC)NC(=O)[C@@H](N)CCC(=O)O)C(=O)N[C@@H](C)C(=O)N[C@@H](C)C(=O)N[C@@H](CCCNC(=N)N)C(=O)N[C@@H](CCCCN)C(=O)N[C@@H](CCCCN)C(=O)O; endpoint = pEC50; result = < 6.00
Structure (SMILES) = CC[C@H](C)[C@H](NC(=O)[C@H](Cc1ccccc1)NC(=O)[C@H](CN)NC(=O)[C@H](CCCNC(=N)N)NC(=O)[C@H](Cc1ccccc1)NC(=O)[C@H](Cc1ccccc1)NC(=O)[C@H](CCCN)NC(=O)[C@H](CO)NC(=O)[C@H](CC(C)C)NC(=O)[C@H](CCCNC(=N)N)NC(=O)[C@H](CCSC)NC(=O)[C@H](C)N)C(=O)N[C@@H](CC(C)C)C(=O)N[C@@H](CCC(N)=O)C(=O)N[C@@H](CCCNC(=N)N)C(=O)N[C@@H](CCCCN)C(=O)N[C@@H](CCCCN)C(=O)O; test system = Streptococcus pneumoniae cells; endpoint = pIC50; result = < 6.00
Structure (SMILES) = CC[C@H](C)[C@H](NC(=O)[C@H](CCCNC(=N)N)NC(=O)[C@H](CO)NC(=O)[C@H](CC(C)C)NC(=O)[C@H](CCCNC(=N)N)NC(=O)[C@H](CCSC)NC(=O)[C@H](C)N)C(=O)N[C@H](C(=O)N[C@@H](CCCNC(=N)N)C(=O)N[C@@H](CC(=O)O)C(=O)N[C@@H](Cc1ccccc1)C(=O)N[C@@H](CC(C)C)C(=O)N[C@@H](CC(C)C)C(=O)N[C@@H](CCC(N)=O)C(=O)N[C@@H](CCCNC(=N)N)C(=O)N[C@@H](CCCCN)C(=O)N[C@@H](CCCCN)C(=O)O)[C@@H](C)CC; endpoint = pIC50; result = < 6.00
Structure (SMILES) = CC[C@H](C)[C@H](NC(=O)[C@H](C)N)C(=O)N[C@@H](CCCNC(=N)N)C(=O)N[C@@H](CCC(N)=O)C(=O)N[C@H](C(=O)N[C@@H](Cc1c[nH]cn1)C(=O)N[C@@H](CC(N)=O)C(=O)N[C@H](C(=O)N[C@@H](Cc1ccccc1)C(=O)N[C@@H](Cc1ccccc1)C(=O)N[C@@H](Cc1ccccc1)C(=O)N[C@@H](Cc1ccccc1)C(=O)N[C@@H](Cc1ccccc1)C(=O)N[C@@H](CCCCN)C(=O)N[C@@H](CCCNC(=N)N)C(=O)N[C@@H](CCCNC(=N)N)C(=O)O)[C@@H](C)CC)[C@@H](C)O; assay = reporter gene, antagonist; test system = TIGR4 comX::lacZ; conditions = 30 min, 37 °C, together with: CSP2 250 nM; endpoint = pIC50; result = < 5.00

Repeated from above:
Structure (SMILES) = CC[C@H](C)[C@H](NC(=O)[C@H](CCCNC(=N)N)NC(=O)[C@H](CO)NC(=O)[C@H](CC(C)C)NC(=O)[C@H](CCCNC(=N)N)NC(=O)[C@H](CCSC)NC(=O)[C@H](C)N)C(=O)N[C@H](C(=O)N[C@@H](CCCNC(=N)N)C(=O)N[C@@H](CC(=O)O)C(=O)N[C@@H](Cc1ccccc1)C(=O)N[C@@H](CC(C)C)C(=O)N[C@@H](CC(C)C)C(=O)N[C@@H](CCC(N)=O)C(=O)N[C@@H](CCCNC(=N)N)C(=O)N[C@@H](CCCCN)C(=O)N[C@@H](CCCCN)C(=O)O)[C@@H](C)CC; endpoint = pIC50; result = < 6.00
